Experimental data gathered from unrelated publications.
Each line is one published result; not all experiments were run side by side. ± marks the error that the study gave.
cyp121: Mycocyclosin synthase (cyp121, Mycobacterium tuberculosis, UniProt P9WPP7)
UniProt P9WPP7, sequence (whole entry, looked up): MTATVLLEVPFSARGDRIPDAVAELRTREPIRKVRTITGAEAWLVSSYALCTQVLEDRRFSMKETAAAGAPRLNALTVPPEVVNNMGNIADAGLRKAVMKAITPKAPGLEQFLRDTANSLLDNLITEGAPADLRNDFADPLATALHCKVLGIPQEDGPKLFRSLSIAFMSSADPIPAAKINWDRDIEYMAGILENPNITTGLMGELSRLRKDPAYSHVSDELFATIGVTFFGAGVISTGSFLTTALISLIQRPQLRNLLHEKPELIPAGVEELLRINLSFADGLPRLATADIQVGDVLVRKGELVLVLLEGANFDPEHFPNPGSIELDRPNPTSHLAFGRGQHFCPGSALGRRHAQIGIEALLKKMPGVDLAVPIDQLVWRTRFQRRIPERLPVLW
Spike glycoprotein: Spike glycoprotein (Severe acute respiratory syndrome coronavirus 2, UniProt P0DTC2)
gag capsid C-terminal domain: Gag polyprotein, capsid C-terminal domain (gag, UniProt P12493)
rep main protease: Replicase polyprotein 1ab, main protease (rep, Severe acute respiratory syndrome coronavirus 2, UniProt P0DTD1)
UniProt P03314, sequence (whole entry, looked up): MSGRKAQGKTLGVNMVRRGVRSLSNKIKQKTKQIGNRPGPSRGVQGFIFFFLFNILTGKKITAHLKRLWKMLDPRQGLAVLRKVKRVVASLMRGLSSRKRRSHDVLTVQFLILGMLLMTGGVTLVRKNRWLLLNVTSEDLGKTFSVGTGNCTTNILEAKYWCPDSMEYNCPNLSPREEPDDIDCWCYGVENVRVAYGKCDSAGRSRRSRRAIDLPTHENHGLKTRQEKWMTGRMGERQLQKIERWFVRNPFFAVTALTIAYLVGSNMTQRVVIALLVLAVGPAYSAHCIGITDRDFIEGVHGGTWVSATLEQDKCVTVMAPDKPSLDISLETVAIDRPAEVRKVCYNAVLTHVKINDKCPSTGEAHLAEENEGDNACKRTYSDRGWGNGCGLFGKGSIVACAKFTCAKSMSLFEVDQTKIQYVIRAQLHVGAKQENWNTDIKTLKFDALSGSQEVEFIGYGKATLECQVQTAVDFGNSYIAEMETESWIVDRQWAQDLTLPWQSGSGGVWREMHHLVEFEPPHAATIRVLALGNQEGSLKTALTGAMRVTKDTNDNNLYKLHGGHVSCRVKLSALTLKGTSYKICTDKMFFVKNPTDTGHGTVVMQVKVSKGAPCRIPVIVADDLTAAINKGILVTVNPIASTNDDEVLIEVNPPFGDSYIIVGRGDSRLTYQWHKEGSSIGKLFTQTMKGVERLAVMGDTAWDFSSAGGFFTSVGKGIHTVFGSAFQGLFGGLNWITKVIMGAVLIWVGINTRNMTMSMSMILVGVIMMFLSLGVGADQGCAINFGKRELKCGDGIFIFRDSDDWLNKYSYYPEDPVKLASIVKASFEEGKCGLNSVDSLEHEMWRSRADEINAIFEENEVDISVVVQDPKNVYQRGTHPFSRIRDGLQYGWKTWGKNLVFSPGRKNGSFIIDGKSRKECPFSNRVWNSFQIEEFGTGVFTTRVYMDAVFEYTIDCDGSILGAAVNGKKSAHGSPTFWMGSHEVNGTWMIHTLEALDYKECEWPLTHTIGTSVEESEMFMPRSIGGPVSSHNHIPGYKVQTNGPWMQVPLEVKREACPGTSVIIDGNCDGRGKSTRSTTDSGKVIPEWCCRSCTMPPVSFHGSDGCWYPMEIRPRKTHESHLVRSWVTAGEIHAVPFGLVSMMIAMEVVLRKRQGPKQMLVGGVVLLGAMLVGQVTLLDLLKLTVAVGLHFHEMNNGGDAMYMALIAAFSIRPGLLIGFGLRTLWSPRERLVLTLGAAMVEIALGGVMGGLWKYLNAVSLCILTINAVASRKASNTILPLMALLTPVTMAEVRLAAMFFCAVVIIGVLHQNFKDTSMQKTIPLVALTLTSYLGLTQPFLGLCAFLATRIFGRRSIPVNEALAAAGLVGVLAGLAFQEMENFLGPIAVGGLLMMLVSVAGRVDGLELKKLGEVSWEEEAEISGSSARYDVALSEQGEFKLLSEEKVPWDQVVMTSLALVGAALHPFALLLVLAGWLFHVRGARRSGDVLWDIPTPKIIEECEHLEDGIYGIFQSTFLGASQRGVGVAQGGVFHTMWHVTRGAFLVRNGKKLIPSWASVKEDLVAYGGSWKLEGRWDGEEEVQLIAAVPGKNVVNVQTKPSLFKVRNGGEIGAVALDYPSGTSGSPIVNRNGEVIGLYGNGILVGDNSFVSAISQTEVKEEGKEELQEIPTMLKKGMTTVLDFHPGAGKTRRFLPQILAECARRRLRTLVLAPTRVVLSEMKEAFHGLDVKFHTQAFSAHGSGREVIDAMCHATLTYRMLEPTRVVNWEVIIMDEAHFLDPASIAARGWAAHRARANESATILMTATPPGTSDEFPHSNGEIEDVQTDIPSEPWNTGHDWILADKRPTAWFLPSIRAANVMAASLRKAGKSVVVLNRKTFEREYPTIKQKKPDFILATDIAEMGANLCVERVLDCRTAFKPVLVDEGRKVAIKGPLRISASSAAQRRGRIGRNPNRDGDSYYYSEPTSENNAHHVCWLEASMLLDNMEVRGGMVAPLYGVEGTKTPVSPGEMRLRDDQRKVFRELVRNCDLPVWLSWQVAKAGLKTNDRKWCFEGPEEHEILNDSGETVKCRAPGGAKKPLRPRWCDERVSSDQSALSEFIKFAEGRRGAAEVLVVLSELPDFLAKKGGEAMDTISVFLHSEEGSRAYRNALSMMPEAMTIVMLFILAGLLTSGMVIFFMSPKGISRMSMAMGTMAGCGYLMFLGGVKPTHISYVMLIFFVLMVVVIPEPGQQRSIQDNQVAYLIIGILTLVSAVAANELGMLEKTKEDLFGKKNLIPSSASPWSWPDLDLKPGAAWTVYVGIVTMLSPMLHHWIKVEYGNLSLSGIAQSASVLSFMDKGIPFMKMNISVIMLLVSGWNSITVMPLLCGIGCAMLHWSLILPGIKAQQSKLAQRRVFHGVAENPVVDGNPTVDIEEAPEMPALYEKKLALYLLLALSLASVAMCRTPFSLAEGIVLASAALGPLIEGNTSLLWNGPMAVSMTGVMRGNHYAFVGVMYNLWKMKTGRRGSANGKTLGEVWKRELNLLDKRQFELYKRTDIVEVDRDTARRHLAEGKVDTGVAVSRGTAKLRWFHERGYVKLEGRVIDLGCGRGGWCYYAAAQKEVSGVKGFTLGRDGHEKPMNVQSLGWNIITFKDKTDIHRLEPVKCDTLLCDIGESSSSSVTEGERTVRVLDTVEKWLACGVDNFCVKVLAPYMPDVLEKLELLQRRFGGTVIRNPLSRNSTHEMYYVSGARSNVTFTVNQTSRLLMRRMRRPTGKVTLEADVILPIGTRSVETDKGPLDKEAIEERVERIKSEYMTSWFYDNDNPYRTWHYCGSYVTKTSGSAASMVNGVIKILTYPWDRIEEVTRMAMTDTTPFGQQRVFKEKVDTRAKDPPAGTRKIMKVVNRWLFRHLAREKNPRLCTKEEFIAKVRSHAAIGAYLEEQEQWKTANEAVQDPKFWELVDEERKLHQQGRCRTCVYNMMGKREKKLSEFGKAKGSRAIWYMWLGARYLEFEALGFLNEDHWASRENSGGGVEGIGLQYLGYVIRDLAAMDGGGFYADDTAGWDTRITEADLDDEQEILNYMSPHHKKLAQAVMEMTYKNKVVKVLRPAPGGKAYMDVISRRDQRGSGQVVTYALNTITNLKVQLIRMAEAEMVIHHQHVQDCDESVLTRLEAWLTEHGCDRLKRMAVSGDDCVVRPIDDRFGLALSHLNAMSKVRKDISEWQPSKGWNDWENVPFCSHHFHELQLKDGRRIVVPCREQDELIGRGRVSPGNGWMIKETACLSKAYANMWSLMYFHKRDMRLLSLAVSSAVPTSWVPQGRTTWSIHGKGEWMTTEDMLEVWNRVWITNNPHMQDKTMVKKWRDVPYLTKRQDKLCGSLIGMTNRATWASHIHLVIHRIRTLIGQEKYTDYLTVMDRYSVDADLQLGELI
UniProt P78348, sequence (whole entry, looked up): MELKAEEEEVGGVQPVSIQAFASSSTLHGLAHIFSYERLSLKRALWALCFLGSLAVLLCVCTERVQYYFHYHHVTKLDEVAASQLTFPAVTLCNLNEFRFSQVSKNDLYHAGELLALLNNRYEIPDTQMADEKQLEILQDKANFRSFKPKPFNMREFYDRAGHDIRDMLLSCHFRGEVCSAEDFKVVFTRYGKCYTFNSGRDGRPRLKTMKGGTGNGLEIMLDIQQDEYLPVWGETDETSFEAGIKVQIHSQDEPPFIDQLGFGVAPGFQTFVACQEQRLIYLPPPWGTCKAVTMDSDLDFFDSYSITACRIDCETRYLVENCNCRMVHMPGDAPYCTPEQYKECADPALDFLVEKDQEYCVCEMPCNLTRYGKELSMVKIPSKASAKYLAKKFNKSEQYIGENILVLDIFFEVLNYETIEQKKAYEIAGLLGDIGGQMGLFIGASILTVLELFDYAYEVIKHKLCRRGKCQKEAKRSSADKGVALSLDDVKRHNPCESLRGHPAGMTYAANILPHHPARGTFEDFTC

SMILES	tested on	assay	test system	conditions	scale	endpoint	value
C=CC(c1ccc(-c2ccc(OC)c(C)c2)cc1)n1ccnc1 (stereo not shown)	cyp121	binding	–	–	–	Kd	5.8 ± 0.5 µM
CC(=O)N[C@H]1[C@@H](OC[C@H](NC(=O)[C@H](C)NC(=O)[C@H](C)N)C(=O)N[C@H](C(=O)N[C@H](C(=O)N[C@H](C(=O)N2CCC[C@H]2C(=O)N[C@@H](C)C(=O)N2CCC[C@H]2C(=O)N[C@@H](C)C(N)=O)[C@@H](C)O[C@H]2O[C@H](CO)[C@H](O)[C@H](O)[C@H]2NC(C)=O)[C@@H](C)O[C@H]2O[C@H](CO)[C@H](O)[C@H](O)[C@H]2NC(C)=O)[C@@H](C)O[C@H]2O[C@H](CO)[C@H](O)[C@H](O)[C@H]2NC(C)=O)O[C@H](CO)[C@H](O)[C@@H]1O	Metalloprotease StcE (stcE, Escherichia coli O157:H7, UniProt O82882)	binding	Escherichia coli, EHEC	–	–	Kd	0.00968 ± 0.0014 µM
CO[C@H]1C[C@@H]2CC[C@@H](C)[C@@](O)(O2)C(=O)C(=O)N2CCCC[C@H]2C(=O)O[C@H]([C@H](C)C[C@@H]2CC[C@@H](O)[C@H](OC)C2)CC(=O)[C@H](C)/C=C(\C)[C@@H](O)[C@@H](OC)C(=O)[C@H](C)C[C@H](C)/C=C/C=C/C=C/1C	Spike glycoprotein	binding, BLI	–	–	–	Kd	89.6 µM
C=CC(c1ccc(-c2ccc3c(c2)OCO3)cc1F)n1ccnc1 (stereo not shown)	cyp121	binding	–	–	–	Kd	4.2 ± 0.3 µM
CC[C@H](C)[C@H](N)C(=O)N[C@H](C(=O)N[C@@H](Cc1ccccc1)C(=O)N[C@H]1CSc2cc(F)cc(c2)SC[C@@H](C(=O)N[C@@H](Cc2ccc(O)cc2)C(=O)N[C@@H](Cc2ccc(O)cc2)C(=O)NCC(=O)N[C@@H](CCCCN)C(=O)N[C@@H](CCCCN)C(=O)N[C@@H](CCCCN)C(N)=O)NC(=O)[C@H](CC(C)C)NC(=O)[C@H](CC(C)C)NC(=O)[C@H](CC(=O)O)NC1=O)[C@@H](C)O	gag capsid C-terminal domain	binding, biolayer interferometry	PBS	pH 7.4, 30 °C, biotinylated peptide immobilised, added: C-CA 5 to 100 µM	–	Kd	21 ± 2.4 µM
CN1CCCC2(C1)CN(Cc1cccnc1)c1ccc(C(=O)NCC3CCCCC3)cc12 (stereo not shown)	SARS-CoV-2	cytopathic effect, cell-based CPE	USA_WA1/2020	–	–	AC50	25.1 µM
Cn1cnc(Cn2c(=O)[nH]/c(=N\c3cc4cn(C)nc4cc3Cl)n(Cc3cc(F)c(F)cc3F)c2=O)n1	–	–	human, moderate renal impairment	oral, 375 mg, treatment-related decreased GFR, Moderate severity	–	patients with adverse event	12.5%
CNC(=O)[C@@H](NC(=O)[C@H](CC(C)C)[C@H](O)C(=O)NO)C(C)(C)C	human fibrinogen	SDS-PAGE	Daboia russelii	concentration not given, unit not given, added: WB venom	relative to: untreated fibrinogen	remaining fibrinogen Aα chain	0.205
CO[C@H]1/C=C/O[C@@]2(C)Oc3c(C)c(O)c4c(O)c(c(/C=N/N5CCN(C6CCCC6)CC5)c(O)c4c3C2=O)NC(=O)/C(C)=C\C=C\[C@H](C)[C@H](O)[C@@H](C)[C@@H](O)[C@@H](C)[C@H](OC(C)=O)[C@@H]1C	Genome polyprotein, NS5 RdRp domain (Yellow fever virus, UniProt P03314)	–	–	–	–	Kd	7.24 µM
CC[C@H](C)[C@H](N)C(=O)N[C@H](C(=O)N[C@@H](Cc1ccccc1)C(=O)N[C@H]1CSc2cc(C)c(cc2C)SC[C@@H](C(=O)N[C@@H](Cc2ccc(O)cc2)C(=O)N[C@@H](Cc2ccc(O)cc2)C(=O)NCC(=O)N[C@@H](CCCCN)C(=O)N[C@@H](CCCCN)C(=O)N[C@@H](CCCCN)C(N)=O)NC(=O)[C@H](CC(C)C)NC(=O)[C@H](CC(C)C)NC(=O)[C@H](CC(=O)O)NC1=O)[C@@H](C)O	gag capsid C-terminal domain	binding, biolayer interferometry	PBS	pH 7.4, 30 °C, biotinylated peptide immobilised, added: C-CA 5 to 100 µM	–	Kd	9.7 ± 0.4 µM
COc1ccc(O)cc1OC	rep main protease	reporter gene (mKate2), inhibitor	–	20 µM	–	inhibition	-0.264%
CCCCSCCCNC(=O)C1CCN(Cc2nc(-c3ccc(CC)cc3)oc2C)CC1	SARS-CoV-2	cytopathic effect, cell-based CPE	USA_WA1/2020	round 2, 5-point dilution	–	maximal response	89.8%
COc1cc2c3cc1Oc1c(OC)c(OC)cc4c1[C@@H](Cc1ccc(O)c(c1)Oc1ccc(cc1)C[C@@H]3N(C)CC2)N(C)CC4	Spike glycoprotein	binding, BLI	–	–	–	Kd	111 µM
CC[C@H](C)[C@H](NC(=O)[C@H](CC(C)C)NC(=O)[C@H](Cc1c[nH]c2ccccc12)NC(=O)[C@H](CCC(N)=O)NC(=O)[C@@H](NC(=O)[C@H](Cc1ccccc1)NC(=O)[C@H](C)NC(=O)[C@H](CCCCNC(=O)COCCOCCNC(=O)COCCOCCNC(=O)CC[C@H](NC(=O)CCCCCCCCCCCCCCCCCCC(=O)O)C(=O)O)NC(=O)[C@H](CCC(N)=O)NC(=O)[C@H](C)NC(=O)[C@@H](NC(=O)[C@H](CCCCN)NC(=O)[C@H](CC(=O)O)NC(=O)[C@H](CC(C)C)NC(=O)C(C)(C)NC(=O)[C@@H](NC(=O)[C@H](CO)NC(=O)[C@H](Cc1ccc(O)cc1)NC(=O)[C@H](CC(=O)O)NC(=O)[C@H](CO)NC(=O)[C@@H](NC(=O)[C@H](Cc1ccccc1)NC(=O)[C@@H](NC(=O)CNC(=O)[C@H](CCC(=O)O)NC(=O)C(C)(C)NC(=O)[C@@H](N)Cc1ccc(O)cc1)[C@@H](C)O)[C@@H](C)O)[C@@H](C)CC)[C@@H](C)CC)C(C)C)C(=O)N[C@@H](C)C(=O)NCC(=O)NCC(=O)N1CCC[C@H]1C(=O)N[C@@H](CO)C(=O)N[C@@H](CO)C(=O)NCC(=O)N[C@@H](C)C(=O)N1CCC[C@H]1C(=O)N1CCC[C@H]1C(=O)N1CCC[C@H]1C(=O)N[C@@H](CO)C(N)=O	–	measured: anti-drug antibodies	healthy human subjects	5/5/8/10 mg escalating, post-baseline	–	subjects with treatment-emergent ADA	14.3%
C=CC(c1ccc(-c2ccc(OC)c(OC)c2)cc1)n1ccnc1 (stereo not shown)	cyp121	binding	–	–	–	Kd	21.3 ± 1.1 µM
CC(C)=CCC[C@]1(C)C=Cc2c(O)c3c(c(CC=C(C)C)c2O1)O[C@]12C(=C[C@@H]4C[C@H]1C(C)(C)O[C@@]2(C/C=C(/C)C(=O)O)C4=O)C3=O	Spike glycoprotein	binding, BLI	–	–	–	Kd	27.2 µM
CC[C@H](C)[C@@H]1NC(=O)[C@H](CCC(N)=O)NC(=O)[C@H](CCC(=O)O)NC(=O)[C@H](CCCNC(=N)N)NC(=O)[C@@H]2CCCN2C(=O)[C@H](CCCNC(=N)N)NC(=O)[C@H](CCCNC(=N)N)NC(=O)[C@H](Cc2ccc(O)cc2)NC(=O)CSC[C@@H](C(=O)NCC(N)=O)NC(=O)[C@H](Cc2ccccc2)NC(=O)[C@H](C(C)C)NC(=O)[C@H](Cc2c[nH]c3ccccc23)NC(=O)[C@H](CC(C)C)NC(=O)[C@H](CO)NC(=O)CNC(=O)[C@H]([C@@H](C)CC)NC(=O)[C@H]([C@@H](C)CC)NC1=O	Spike glycoprotein	–	–	–	–	Kd	0.046 µM
C=CC1=C(C)C2=Cc3c(C=C)c(C)c4[n]3[Fe]([Cl])[n]3c(c(C)c(CCC(=O)O)c3=CC3=NC(=C4)C(C)=C3CCC(=O)O)=CC1=N2	HmoA	–	–	–	–	Kd	5.81 ± 0.6 µM
CC(C)=CCC[C@](C)(O[C@@H]1O[C@H](CO[C@@H]2O[C@H](CO)[C@@H](O)[C@H](O)[C@H]2O)[C@@H](O)[C@H](O)[C@H]1O)[C@H]1CC[C@]2(C)[C@@H]1[C@H](O)C[C@@H]1[C@@]3(C)CC[C@H](O[C@@H]4O[C@H](CO)[C@@H](O)[C@H](O)[C@H]4O)C(C)(C)[C@@H]3CC[C@]12C	Spike glycoprotein	binding, BLI	–	–	–	Kd	117 µM
CNC(=O)[C@@H](NC(=O)[C@H](CCCc1ccccc1)[C@H](C)N(O)C=O)C(C)(C)C	rep main protease	reporter gene (mKate2), inhibitor	–	20 µM	–	inhibition	-0.509%
Nc1ncnc2c([C@@H]3N[C@H](CO)[C@@H](O)[C@H]3O)c[nH]c12	Venezuelan equine encephalitis virus	viral replication	HeLa, SH3	1.6 µM	–	inhibition	0.2%
CC[C@H](C)[C@H](NC(=O)[C@@H]1CCCN1C(=O)[C@H](C)NC(=O)[C@@H]1CSSC[C@@H]2NC(=O)[C@H](CC(=O)O)NC(=O)[C@H](CCCNC(=N)N)NC(=O)[C@H](CCC(=O)O)NC(=O)[C@H](CCCNC(=N)N)NC(=O)CNC(=O)[C@H](CC(=O)O)NC(=O)[C@@H]3CSSC[C@H](NC(=O)[C@H](CCC(=O)O)NC(=O)[C@H](CC(C)C)NC(=O)CNC(=O)[C@H](C)NC(=O)[C@H](CSSC[C@H](NC(=O)[C@H](Cc4ccccc4)NC(=O)[C@@H](N)CO)C(=O)N[C@@H](CC(C)C)C(=O)N[C@@H](C(C)C)C(=O)N[C@@H](CCCCN)C(=O)N[C@@H](Cc4c[nH]c5ccccc45)C(=O)N[C@@H](CCCCN)C(=O)N[C@@H](CCC(N)=O)C(=O)N3)NC2=O)C(=O)N[C@@H](Cc2c[nH]c3ccccc23)C(=O)N[C@@H](CCCCN)C(=O)N[C@@H](CCCNC(=N)N)C(=O)N[C@@H](CO)C(=O)NCC(=O)N[C@@H](CO)C(=O)N[C@@H](CCCCN)C(=O)N[C@@H](CO)C(=O)N[C@@H](CO)C(=O)N[C@@H](C(C)C)C(=O)N1)C(=O)N[C@H](C(=O)O)[C@@H](C)O	Acid-sensing ion channel 1 (ASIC1, Homo sapiens, UniProt P78348)	binding, SPR	–	pH 7.5	–	Kd	0.0127 µM
C[C@@H]1[C@H]2[C@H](O[C@@H]3O[C@H](CO)[C@@H](O)[C@H](O)[C@H]3O)OC=C(C(=O)O)[C@H]2C[C@@H]1O	Spike glycoprotein	binding, BLI	–	–	–	Kd	36.9 µM
CC[C@H](C)[C@H](N)C(=O)N[C@H](C(=O)N[C@@H](Cc1ccccc1)C(=O)N[C@H]1CSc2c(F)c(F)c(c(F)c2F)-c2c(F)c(F)c(c(F)c2F)SC[C@@H](C(=O)N[C@@H](Cc2ccc(O)cc2)C(=O)N[C@@H](Cc2ccc(O)cc2)C(=O)NCC(=O)N[C@@H](CCCCN)C(=O)N[C@@H](CCCCN)C(=O)N[C@@H](CCCCN)C(N)=O)NC(=O)[C@H](CC(C)C)NC(=O)[C@H](CC(C)C)NC(=O)[C@H](CC(=O)O)NC1=O)[C@@H](C)O	gag capsid C-terminal domain	binding, biolayer interferometry	PBS	pH 7.4, 30 °C, biotinylated peptide immobilised, added: C-CA 5 to 100 µM	–	Kd	> 100 µM
CC[C@H]1CN2CCc3cc(OC)c(OC)cc3[C@@H]2C[C@@H]1C[C@H]1NCCc2cc(O)c(OC)cc21	Nucleoprotein (Severe acute respiratory syndrome coronavirus 2, UniProt P0DTC9)	binding, SPR	–	–	–	Kd	53.8 µM

Some of these lines once more:
SMILES	tested on	assay	test system	conditions	scale	endpoint	value
C=CC(c1ccc(-c2ccc(OC)c(OC)c2)cc1)n1ccnc1 (stereo not shown)	cyp121	binding	–	–	–	Kd	21.3 ± 1.1 µM
